{"data": "Measured values of several laboratories", "B1": "IκBα YD/SS; sequence looked up; chain MFQAAERPQEWAMEGPRDGLKKERLLDDRHDSGLDSMKDEEYEQMVKELQEIRLEPQEVPRGSEPWKQQLTEDGDSFLHLAIIHEEKALTMEVIRQVKGDLAFLNFQNNLQQTPLHLAVITNQPEIAEALLGAGCDPELRDFRGNTPLHLACEQGCLASVGVLTQSCTTPHLHSILKATNYNGHTCLHLASIHGYLGIVELLVSLGADVNAQEPCNGRTALHLAVDLQNPDLVSLLLKCGADVNRVTYQGYSPYQLTWGRPSTRIQQQLGQLTLENLQMLPESEDEESYDTESEFTEFTEDELPSSDCVFGGQRLTL", "B2": "IκBα C308F; sequence looked up; chain MFQAAERPQEWAMEGPRDGLKKERLLDDRHDSGLDSMKDEEYEQMVKELQEIRLEPQEVPRGSEPWKQQLTEDGDSFLHLAIIHEEKALTMEVIRQVKGDLAFLNFQNNLQQTPLHLAVITNQPEIAEALLGAGCDPELRDFRGNTPLHLACEQGCLASVGVLTQSCTTPHLHSILKATNYNGHTCLHLASIHGYLGIVELLVSLGADVNAQEPCNGRTALHLAVDLQNPDLVSLLLKCGADVNRVTYQGYSPYQLTWGRPSTRIQQQLGQLTLENLQMLPESEDEESYDTESEFTEFTEDELPYDDFVFGGQRLTL", "B3": "FABP4; sequence looked up; chain CDAFVGTWKLVSSENFDDYMKEVGVGFATRKVAGMAKPNMIISVNGDLVTIRSESTFKNTEISFKLGVEFDEITADDRKVKSIITLDGGALVQVQKWDGKSTTIKRKRDGDKLVVECVMKGVTSTRVYERA", "note": "Several values in a cell are separate wells, animals, samples, runs or records. ± marks the error that the study gave."}
{"Substance": "lawsone", "target or system": "A549", "assay": "MTT", "scale": "relative to: MRC5 IC50 over A549 IC50", "endpoint": "selectivity index", "result": 1.63}
{"Substance": "TLFEWVPQL", "target or system": "Jurkat T cells expressing 1G4 TCR", "assay": "NFAT-eGFP reporter, fluorescence microscopy", "system": "peptide", "conditions": "concentration not given, HLA-A*02:01 NY-ESO system", "endpoint": "reporter activation", "result": "0.0101%"}
{"Substance": "B1 (IκBα YD/SS)", "target or system": "IκBα/IκBβ/IκBε knockout MEF, retro-transduced IκBα", "assay": "Western blot", "conditions": "concentration not given, 0 (unit not given), with: TNFα 20 ng/mL", "scale": "relative to: time zero", "endpoint": "IκBα protein level", "result": "100%"}
{"Substance": "colistin", "target or system": "Pseudomonas aeruginosa", "assay": "broth microdilution", "system": "clinical isolate RKI-No_502/15", "endpoint": "MIC", "result": "1 µg/mL"}
{"Substance": "RLYQWIPQV", "target or system": "Jurkat T cells expressing 1G4 TCR", "assay": "NFAT-eGFP reporter, flow cytometry", "system": "peptide", "conditions": "concentration not given, HLA-A*02:01 NY-ESO system", "endpoint": "reporter activation", "result": "2.82%"}
{"Substance": "nivolumab", "target or system": "CMV-specific PBMC", "assay": "FluoroSpot", "conditions": "concentration not given, with: NLVPMVATV peptide restimulation", "scale": "relative to: control without ATP", "endpoint": "granzyme B spot count", "result": "97.9% and 117% and 114%"}
{"Substance": "SLLQWVSQV", "target or system": "Jurkat T cells expressing 1G4 TCR", "assay": "NFAT-eGFP reporter, flow cytometry", "system": "peptide", "conditions": "concentration not given, HLA-A*02:01 NY-ESO system", "endpoint": "reporter activation", "result": "73.8%"}
{"Substance": "Ac-LRKLRKRLLRDWLKAFYDKVAEKLKEAF-NH2 (N-acetyl, C-amide)", "target or system": "[3H]-cholesterol-loaded THP-1-derived macrophages", "system": "peptide", "conditions": "50 µg/mL", "scale": "relative to: control", "endpoint": "maximal cholesterol efflux stimulation", "result": "40%"}
{"Substance": "AFRSPCARIGYV", "target or system": "HEK-293T cells", "assay": "co-immunoprecipitation", "system": "peptide", "conditions": "concentration not given, unit not given", "scale": "relative to: Cdk5 level", "endpoint": "Cdk5-p25 binding", "result": "1.23 and 0.91 and 1.04 and 1.01 and 1.08 and 0.723"}
{"Substance": "RLGQWIAQA", "target or system": "Jurkat T cells expressing 1G4 TCR", "assay": "NFAT-eGFP reporter, fluorescence microscopy", "system": "peptide", "conditions": "concentration not given, HLA-A*02:01 NY-ESO system", "endpoint": "reporter activation", "result": "0.0552%"}
{"Substance": "monensin sodium", "target or system": "MCF-10A", "assay": "cell viability, CellTiter-Glo", "scale": "direction not given", "endpoint": "Z score", "result": 0.729}
{"Substance": "epoetin alfa", "target or system": "UT7/EPO", "assay": "phosphorylation, agonist, measured: phospho-AKT", "conditions": "10 min", "endpoint": "EC50", "result": "0.09 nM"}
{"Substance": "B2 (IκBα C308F)", "target or system": "IκBα/IκBβ/IκBε knockout MEF, retro-transduced IκBα", "assay": "Western blot", "conditions": "concentration not given, 0 (unit not given), with: TNFα 20 ng/mL", "scale": "relative to: time zero", "endpoint": "IκBα protein level", "result": "100%"}
{"Substance": "MTVCNASQRQAHAQATAVSL", "target or system": "MDA-MB-468", "assay": "phage binding", "system": "peptide", "scale": "relative to: targeting over control phage", "endpoint": "selectivity ratio", "result": "3.8 ± 1.1"}
{"Substance": "maraviroc", "target or system": "HBMEC", "assay": "gene expression, qPCR", "conditions": "concentration not given, 24 h, with: HIV infection plus Aβ42", "scale": "relative to: HIV plus Aβ42-treated cells, increase", "endpoint": "mRNA level", "result": "8.9 fold"}
{"Substance": "HPDMFTRTHSHN", "target or system": "CCA-156", "assay": "multimer binding", "system": "peptide", "conditions": "150 µM, 30 min, 4 °C, unlabelled competitor, with: 5 µM Cy5.5-labelled multimer", "endpoint": "fluorescence signal", "result": "decreased"}
{"Substance": "B3 (FABP4)", "target or system": "mouse bone marrow macrophages", "assay": "TRAP staining", "conditions": "50 ng/mL, 4 days, with: M-CSF and RANKL", "endpoint": "osteoclast number", "result": "230 and 257 and 221 and 209"}
{"Substance": "Ixazomib citrate", "target or system": "HEK-293T ATF4-FLuc reporter", "assay": "reporter gene, activator, qHTS", "endpoint": "EC50", "result": "395 nM"}
{"Substance": "SLLMWITQC", "target or system": "Jurkat T cells expressing 1G4 TCR", "assay": "NFAT-eGFP reporter, fluorescence microscopy", "system": "peptide", "conditions": "concentration not given, HLA-A*02:01 NY-ESO system", "endpoint": "reporter activation", "result": "15.2%"}
{"Substance": "indirubin-3′-monoxime", "target or system": "HeLa expressing Ub(G76V)-GFP", "assay": "Ub(G76V)-GFP degradation, inhibitor, cycloheximide chase", "conditions": "12 µM", "endpoint": "inhibition", "result": "2%"}
{"Substance": "11-deoxycorticosterone", "target or system": "CYP11B2 (human)", "assay": "substrate binding, stopped-flow global kinetic fitting", "system": "purified enzyme", "conditions": "3-state induced fit model, with: 10-fold excess adrenodoxin", "endpoint": "rate constant k-2", "result": "1.36 ± 0.139 s⁻¹"}
{"Substance": "ALFQWISGA", "target or system": "Jurkat T cells expressing 1G4 TCR", "assay": "NFAT-eGFP reporter, fluorescence microscopy", "system": "peptide", "conditions": "concentration not given, HLA-A*02:01 NY-ESO system", "endpoint": "reporter activation", "result": "0.0111%"}
{"Substance": "bis(2,4-dimethylpyridine)dichloroplatinum(II)", "target or system": "A549", "assay": "cell viability, MTT", "conditions": "24 h", "endpoint": "IC50", "result": "10400 nM"}
{"Substance": "GSGAGSETKM", "target or system": "human MAGI1-2/6 PDZ construct (MBP fusion)", "assay": "surface plasmon resonance", "system": "peptide", "conditions": "concentration not given", "scale": "higher = stronger binding", "endpoint": "normalised SPR binding response", "result": "0 normalised RU"}
{"Substance": "Peginesatide", "target or system": "UT7/EPO", "assay": "tyrosine phosphorylation, LC-MS/MS phosphoproteomics, GluC, measured: SPTB tyrosine 15", "conditions": "10 nM, 15 min, with: 10 U/mL EPO", "scale": "relative to: vehicle", "endpoint": "phosphorylation level", "result": "5.9 fold"}
{"Substance": "SLLQWTTQV", "target or system": "Jurkat T cells expressing 1G4 TCR", "assay": "NFAT-eGFP reporter, fluorescence microscopy", "system": "peptide", "conditions": "concentration not given, HLA-A*02:01 NY-ESO system", "endpoint": "reporter activation", "result": "26.9%"}
{"Substance": "bovine insulin", "target or system": "ATDC5", "conditions": "10 µg/mL, days 6 to 10", "endpoint": "cell doubling time", "result": "~48 h"}
{"Substance": "ALLEWVTEV", "target or system": "Jurkat T cells expressing 1G4 TCR", "assay": "NFAT-eGFP reporter, fluorescence microscopy", "system": "peptide", "conditions": "concentration not given, HLA-A*02:01 NY-ESO system", "endpoint": "reporter activation", "result": "0.00554%"}
{"Substance": "GSGAGKETEC", "target or system": "human MAGI1-3/6 PDZ construct (MBP fusion)", "assay": "surface plasmon resonance", "system": "peptide", "conditions": "concentration not given", "scale": "higher = stronger binding", "endpoint": "normalised SPR binding response", "result": "0 normalised RU"}
{"note": "For quick reference, copied from above:"}
{"Substance": "Peginesatide", "target or system": "UT7/EPO", "assay": "tyrosine phosphorylation, LC-MS/MS phosphoproteomics, GluC, measured: SPTB tyrosine 15", "conditions": "10 nM, 15 min, with: 10 U/mL EPO", "scale": "relative to: vehicle", "endpoint": "phosphorylation level", "result": "5.9 fold"}
{"Substance": "Ixazomib citrate", "target or system": "HEK-293T ATF4-FLuc reporter", "assay": "reporter gene, activator, qHTS", "endpoint": "EC50", "result": "395 nM"}
{"Substance": "MTVCNASQRQAHAQATAVSL", "target or system": "MDA-MB-468", "assay": "phage binding", "system": "peptide", "scale": "relative to: targeting over control phage", "endpoint": "selectivity ratio", "result": "3.8 ± 1.1"}
{"Substance": "RLGQWIAQA", "target or system": "Jurkat T cells expressing 1G4 TCR", "assay": "NFAT-eGFP reporter, fluorescence microscopy", "system": "peptide", "conditions": "concentration not given, HLA-A*02:01 NY-ESO system", "endpoint": "reporter activation", "result": "0.0552%"}
